Results of several laboratories.
Lines come from different studies, so protocols differ. ± marks the error that the study gave.

SMILES | test system | setting | Cmax
C=CCn1c(=O)c2cnc(Nc3ccc(N4CCN(C)CC4)cc3)nc2n1-c1ccc2c(n1)[C@@](O)(CC)CC2 | female NOD/SCID mouse OVCAR-3 xenograft, plasma | oral, 80 mg/kg once daily, :2 | 4730 ng/mL
Cc1cc(NC2CCc3cc(Cl)ccc3C2)n2nc(C(C)(F)F)nc2n1 (stereo not drawn) | NSG mouse, whole blood | oral, 30 mg/kg | 2200 nM
CC(C(=O)Nc1c(F)cccc1F)N1CCN(c2ccccc2)CC1 (stereo not drawn) | C57BL/6J mouse, female, brain | intraperitoneal, 10 mg/kg single dose | 7720 ± 2370 ng/mL
CC(C)N1Cc2cc(C(F)(F)F)ncc2C2=CN=C(NCc3c(F)ccc4c3CCO4)N3C=NC(C1=O)C23 (stereo not drawn) | CD1 mouse, male, plasma | oral, 10 mg/kg | 9630 nM
CN[C@H](CC(C)C)C(=O)N[C@H]1C(=O)N[C@@H](CC(N)=O)C(=O)N[C@H]2C(=O)N[C@H]3C(=O)N[C@H](C(=O)N[C@H](C(=O)O)c4cc(O)cc(O)c4-c4cc3ccc4O)[C@H](O)c3ccc(c(Cl)c3)Oc3cc2cc(c3O[C@@H]2O[C@H](CO)[C@@H](O)[C@H](O)[C@H]2O[C@H]2C[C@](C)(N)[C@H](O)[C@H](C)O2)Oc2ccc(cc2Cl)[C@H]1O | C57BL/6N mouse H2, faeces, wet weight | po, 0.5 mL, 20 mg/mL solution | 11 mg/g
CN(C(=O)n1cnc(-c2ccc[n+]([O-])c2)c1)C1CCCCC1 | CD1 mouse, male, plasma | oral, 10 mg/kg, 1 h | 3620 ± 437 ng/mL
O=c1c2cc(Cl)c(CO)cc2[nH]c(=S)n1Cc1cccnc1 | mouse | oral, 10 mg/kg | 24 ng/mL
Cc1nc2c(n1CCCN1CCCCC1)C(=O)c1ccccc1C2=O | C57BL/6 mouse, plasma | oral, 20 mg/kg | 697 nM
CNC(=O)c1cc(Oc2ccc(NC(=O)Nc3ccc(Cl)c(C(F)(F)F)c3)cc2)cc[n+]1[O-] | mouse, Oatp1b2 knockout, plasma | oral, 10 mg/kg, without rifampin, geometric mean | 38 ng/mL
CC(C)c1nc(CN(C)C(=O)N[C@H](C(=O)N[C@@H](Cc2ccccc2)C[C@H](O)[C@H](Cc2ccccc2)NC(=O)OCc2cncs2)C(C)C)cs1 | mouse, young pups, brain | 15 mg/kg, together with: elacridar | ~5000 nM
CC[C@H](C)[C@@H]1NC(=O)[C@@](C)(NC(=O)[C@H](CCCNC(=N)N)NC(=O)[C@H](CC(C)C)NC(=O)[C@@H](NC(=O)[C@H](CCC(N)=O)NC(=O)[C@H](CC(C)C)NC(C)=O)[C@@H](C)O)CCCC=CCCC[C@@](C)(C(=O)N[C@@H](CC(C)C)C(=O)N[C@@H](Cc2ccc3ccccc3c2)C(N)=O)NC(=O)[C@H](CCCNC(=N)N)NC(=O)[C@H](CCC(N)=O)NC1=O | BALB/c mouse | intraperitoneal, 10 mg/kg once daily, day 14, dosed for 14 days | 11400 ng/mL
O=C(O)C[C@H](O)C[C@H](O)/C=C/c1c(C2CC2)nc2ccccc2c1-c1ccc(F)cc1 | FVB wild-type mouse, plasma | oral, 5 mg/kg | 31.6 nM
CC1(CNc2nc(-c3cccs3)nc(Cl)c2-c2c(F)cc(N)cc2F)COC1 | mouse, plasma | intraperitoneal, 2.5 mg/kg, cassette dosing | 247 ng/mL
COc1cc([C@@H]2Oc3c(O)ccc([C@H]4Oc5cc(O)cc(O)c5C(=O)[C@@H]4O)c3[C@H]2CO)ccc1O | FVB wild-type mouse, plasma | oral gavage, 500 mg/kg silymarin | not detected
CN1CCCC1CCNS(=O)(=O)c1ccc2c(c1)CN(CC1CCCCC1)CC2 (stereo not drawn) | mouse, plasma | oral, 10 mg/kg, single dose | 517 nM
CC1(C)c2nc(-c3ccc(F)cc3)c(Nc3ccc(F)cc3)n2CCN1C(=O)CN | NMRI mouse Plasmodium berghei-infected, blood | oral, 2 mg/kg, monotherapy | 367 nM
Cc1cc(NC2Cc3cc(F)c(F)cc3C2)n2nc(C(C)(F)F)nc2n1 | NSG mouse, whole blood | oral, 30 mg/kg | 14500 nM
CN1CCC[C@H](CN2c3ccccc3Sc3ccccc32)C1.Cl | fasted female ICR mouse, heart | oral, 16 mg/kg | 0.000752 mg/g
CNC(=O)c1cc(Oc2ccc(NC(=O)N(c3ccc(Cl)c(C(F)(F)F)c3)[C@@H]3O[C@H](C(=O)O)[C@@H](O)[C@H](O)[C@H]3O)cc2)ccn1 | mouse, Oatp1b2 knockout, plasma | oral, 10 mg/kg, without rifampin, geometric mean | 7750 ng/mL
CC(=O)NCc1cc2c(cc1F)C(=O)N(C1CCC(=O)NC1=O)C2 (stereo not drawn) | male CD-1 mouse, plasma | oral, 10 mg/kg of parent drug | 5.6 ± 2.7 ng/mL
CN(C)C(=O)c1cc2cnc(Nc3ccc(-c4ccc5c(=O)cc(N6CCOCC6)oc5c4)cc3)nc2n1C1CCCC1 | BALB/c mouse, plasma | oral, 20 mg/kg | 1440 ± 220 ng/mL
c1csc(CNc2cc[nH]n2)c1 | male CD-1 mouse, plasma | oral, 20 mg/kg, hydrochloride salt | 54600 nM
CCOC(=O)C1=C(CN2CCC[C@@H]2C(=O)Nc2ccc(B(O)O)cc2)NC(c2nccs2)=N[C@H]1c1ccc(F)cc1Br | ICR mouse, plasma | oral, 10 mg/kg | 317 ± 18.5 ng/mL
COc1ccc(C[C@H](NC(=O)[C@H](C)NC(=O)CN2CCOCC2)C(=O)N[C@@H](Cc2ccccc2)C(=O)C2(C)CO2)cc1 (stereo in doubt) | BALB/c mouse | oral, 20 mg/kg single | 18000 nM
Cc1cc(N[C@H]2CCc3ccc(Cl)cc3C2)n2nc(C(C)(F)F)nc2n1 | NSG mouse, whole blood | oral, 30 mg/kg | 2830 nM
O=C(NCCN1CCCC1)c1cc(-c2ccc(CN3CCOCC3)cc2)nc2ccc(F)cc12 | NMRI mouse Plasmodium berghei-infected, blood | oral, 0.3 mg/kg, monotherapy | 18 nM
CCCc1cc(C)[nH]c(=O)c1CNC(=O)c1cc(-c2ccc(N3CCN(C(C)C)CC3)nc2)cc2c1cnn2C(C)C | Swiss albino mouse, male | intraperitoneal, 150 mg/kg | 9700 to 11800 nM

Some of these lines once more:
SMILES | test system | setting | Cmax
O=c1c2cc(Cl)c(CO)cc2[nH]c(=S)n1Cc1cccnc1 | mouse | oral, 10 mg/kg | 24 ng/mL
Cc1nc2c(n1CCCN1CCCCC1)C(=O)c1ccccc1C2=O | C57BL/6 mouse, plasma | oral, 20 mg/kg | 697 nM
CNC(=O)c1cc(Oc2ccc(NC(=O)Nc3ccc(Cl)c(C(F)(F)F)c3)cc2)cc[n+]1[O-] | mouse, Oatp1b2 knockout, plasma | oral, 10 mg/kg, without rifampin, geometric mean | 38 ng/mL
CC(C)c1nc(CN(C)C(=O)N[C@H](C(=O)N[C@@H](Cc2ccccc2)C[C@H](O)[C@H](Cc2ccccc2)NC(=O)OCc2cncs2)C(C)C)cs1 | mouse, young pups, brain | 15 mg/kg, together with: elacridar | ~5000 nM
